# Values quoted from earlier work that unrelated publications cite.
# Each line is one published result; not all experiments were run side by side. ± gives the spread as reported.
# Chain of UniProt Q16288 (whole entry, looked up): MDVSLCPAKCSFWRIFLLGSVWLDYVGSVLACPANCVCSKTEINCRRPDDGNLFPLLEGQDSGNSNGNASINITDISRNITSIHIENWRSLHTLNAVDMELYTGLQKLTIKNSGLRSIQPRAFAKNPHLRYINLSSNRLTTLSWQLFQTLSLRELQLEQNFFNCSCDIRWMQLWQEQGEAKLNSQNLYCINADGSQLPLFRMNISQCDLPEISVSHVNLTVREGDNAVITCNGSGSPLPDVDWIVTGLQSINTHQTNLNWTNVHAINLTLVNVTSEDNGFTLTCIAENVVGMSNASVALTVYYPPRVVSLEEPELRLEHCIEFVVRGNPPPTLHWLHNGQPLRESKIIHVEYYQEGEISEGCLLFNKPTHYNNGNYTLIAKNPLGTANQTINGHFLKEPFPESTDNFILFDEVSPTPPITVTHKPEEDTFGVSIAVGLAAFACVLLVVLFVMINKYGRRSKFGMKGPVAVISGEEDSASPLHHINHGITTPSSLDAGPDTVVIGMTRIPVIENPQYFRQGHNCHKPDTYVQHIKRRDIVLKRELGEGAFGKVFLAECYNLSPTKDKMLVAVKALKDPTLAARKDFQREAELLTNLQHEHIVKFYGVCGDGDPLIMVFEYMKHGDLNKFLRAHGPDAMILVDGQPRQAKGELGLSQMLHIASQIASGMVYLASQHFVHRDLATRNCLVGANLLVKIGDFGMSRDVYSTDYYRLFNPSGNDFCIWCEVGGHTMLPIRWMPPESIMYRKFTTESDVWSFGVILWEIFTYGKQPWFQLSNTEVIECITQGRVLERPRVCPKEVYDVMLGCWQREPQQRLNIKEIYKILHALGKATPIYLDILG
SMILES,target or system,assay,test system,conditions,how to read,endpoint,result
COCCc1ccc(OCC(O)CNC(C)C)cc1 (centres unmarked),,,human fasted,"400 mg multiple doses, day 7, mean",,Cmax,224 ng/mL
CCCCCCOC(=O)NC(=N)c1ccc(NCc2nc3cc(C(=O)N(CCC(=O)OCC)c4ccccn4)ccc3n2C)cc1,,,human,"oral, dose not given",,Cmax,95 ng/mL
COc1cc2nc(N(C)CCCNC(=O)C3CCCO3)nc(N)c2cc1OC (centres unmarked),,,"human, plasma",concentration not given,,Cmax,32 nM
COc1cccc2c1C(=O)c1c(O)c3c(c(O)c1C2=O)C[C@@](O)(C(=O)CO)C[C@@H]3O[C@H]1C[C@H](N)[C@H](O)[C@H](C)O1,,,"human normal weight, plasma","intravenous infusion, 60 mg/m2, 40 min infusion",,Cmax,1160 nM
COc1cc2nccc(Oc3ccc(NC(=O)C4(C(=O)Nc5ccc(F)cc5)CC4)cc3)c2cc1OC,,,"human, plasma",dose not given,,Cmax,1080 nM
CN(C)C/C=C/C(=O)Nc1cc2c(Nc3ccc(F)c(Cl)c3)ncnc2cc1O[C@H]1CCOC1,,,"human, plasma",concentration not given,,Cmax,78 nM
COc1cc(Cc2cnc(N)nc2N)cc(OC)c1OC,,,human,dose not given,,Cmax,30000 nM
OC(Cn1cncn1)(Cn1cncn1)c1ccc(F)cc1F,,,"human, plasma","intravenous, 100 mg single dose, mean observed",,Cmax,2860 ng/mL
CO[C@@H](C)Cn1c(=O)n(C)c2cnc3ccc(-c4cncc(C(C)(C)O)c4)cc3c21,,,human,"200 mg twice daily, monotherapy, steady state, day 15",,Cmax,752 ng/mL
Cc1nsc(-c2nnc3n2CCN(C(=O)c2ccc(F)cc2)[C@@H]3C)n1,,,human,"oral, 30 mg single dose, non-smoker",,Cmax,282 ng/mL
C=CC[C@@H]1/C=C(\C)C[C@H](C)C[C@H](OC)[C@H]2O[C@@](O)(C(=O)C(=O)N3CCCC[C@H]3C(=O)O[C@H](/C(C)=C/[C@@H]3CC[C@@H](O)[C@H](OC)C3)[C@H](C)[C@@H](O)CC1=O)[C@H](C)C[C@@H]2OC,,,"human, plasma",concentration not given,,Cmax,83 nM
Cc1cn([C@H]2C=C[C@@H](CO)O2)c(=O)[nH]c1=O,,,"human, plasma","concentration not given, total plasma concentration",,Cmax,2400 nM
CCN1CCN(Cc2ccc(Nc3ncc(F)c(-c4cc(F)c5nc(C)n(C(C)C)c5c4)n3)nc2)CC1,,,human,"150 mg single dose, tablet",,Cmax,167 ng/mL
COc1ccccc1Oc1c(NS(=O)(=O)c2ccc(C(C)(C)C)cc2)nc(-c2ncccn2)nc1OCCO,,,human,"62.5 mg, 28 days",,Cmax,1400 nM
Nc1cc(C(F)(F)F)c(-c2nc(N3CCOCC3)nc(N3CCOCC3)n2)cn1,"NTRK3 (Homo sapiens, UniProt Q16288)",enzyme activity,,10 µM,reference: untreated,remaining activity,92%
COc1cc(NC(=O)CCN2CCC(OC(=O)Nc3ccccc3-c3ccccc3)CC2)c(Cl)cc1CNC[C@H](O)c1ccc(O)c2[nH]c(=O)ccc12,,,"human, plasma","inhaled, dose not given",,Cmax,0.14 nM
O=C(O)C[C@H]1CC[C@H](c2ccc(-c3ccc(Nc4ccc(C(F)(F)F)nc4)cn3)cc2)CC1,,,human,dose not given,,Cmax,2800 nM
CC(C)NCC(O)c1ccc(O)c(O)c1 (centres unmarked),,,"human, plasma",concentration not given,,Cmax,2.7 nM
CN(CCOc1ccc(CC2SC(=O)NC2=O)cc1)c1ccccn1 (centres unmarked),,,"human, plasma","oral, 8 mg single dose",,Cmax,1000 to 2000 nM
C[C@@H](Oc1ccc(S(C)(=O)=O)cc1C(=O)N1C[C@@H]2C[C@]2(c2cc(C(F)(F)F)on2)C1)C(F)(F)F,,,human,"oral, 150 mg, solution, fasted, single dose",,Cmax,2970 nM
C[C@@H]1C[C@H]2[C@@H]3CCC4=CC(=O)C=C[C@]4(C)[C@@]3(F)[C@@H](O)C[C@]2(C)[C@@]1(O)C(=O)CO,,,"human, plasma",concentration not given,,Cmax,160 nM
CNCc1cc(-c2ccccc2F)n(S(=O)(=O)c2cccnc2)c1,,,"human, plasma","40 mg single dose, observed clinical data",,Cmax,57.6 ng/mL
O=C(c1cccnc1-c1ccncc1)N1CCC(O)(Cc2ccccc2)CC1,,,"human adults, mild hepatic impairment, plasma",300 mg single dose,,Cmax,1440 ng/mL
O=C(c1cc(Cc2n[nH]c(=O)c3ccccc23)ccc1F)N1CCN(C(=O)C2CC2)CC1,,,human,"oral tablet, 200 mg twice daily, multiple dose",,Cmax,7670 ng/mL
C=CC(=O)N1CCC([C@@H]2CCNc3c(C(N)=O)c(-c4ccc(Oc5ccccc5)cc4)nn32)CC1,,,"human patients, plasma","oral, 160 mg twice daily, day 8",,Cmax,344 ± 161 ng/mL
FC(F)(F)c1ccc(CNc2ccc(Cc3c[nH]c4ncc(Cl)cc34)cn2)cn1,,,human,"1000 mg/day, day 1, split 500 mg BID dosing",,Cmax,1900 ng/mL
C=CC(=O)Nc1cc(Nc2nccc(-c3cn(C)c4ccccc34)n2)c(OCC(F)(F)F)nc1N(C)CCN(C)C,,,healthy human,"80 mg, single dose",,Cmax,29.6 ng/mL
COC(=O)N[C@H](C(=O)N1CCC[C@H]1c1nc(-c2ccc(-c3ccc(-c4c[nH]c([C@@H]5CCCN5C(=O)[C@@H](NC(=O)OC)C(C)C)n4)cc3)cc2)c[nH]1)C(C)C,,,human,dose not given,,Cmax,1350 nM
COc1cc2c(Oc3ccc4[nH]c(C)cc4c3F)ccnc2cc1OCC1(N)CC1,,,human,12 mg single dose,,Cmax,10.5 ± 2.9 ng/mL
Nc1nc(-n2cc(C(=O)O)c(=O)c3cc(F)c(N4CC(O)C4)c(Cl)c32)c(F)cc1F,,,"human, plasma total",450 mg,,Cmax,16900 nM
COc1ccc2[nH]c([S+]([O-])Cc3ncc(C)c(OC)c3C)nc2c1 (centres unmarked),,,human obese subjects,"oral tablet, 20 mg once daily, day 6",,Cmax,749 ng/mL
OCc1cc(C(O)CNCCCCCCOCCCCc2ccccc2)ccc1O (centres unmarked),,,"human, plasma","inhaled, dose not given",,Cmax,1.7 nM
Cn1cncc1-c1c(F)cncc1NC(=O)c1c(N)nn2cc(F)cnc12,,,"human, plasma","270 mg daily, steady state",,Cmax,< 4000 ng/mL
Cc1cc(C)c(CNC(=O)c2cc(Cl)c3c(c2C)O[C@@](C)([C@H]2CC[C@H](N(C)C)CC2)O3)c(=O)[nH]1,,,human,"oral, 200 mg single dose, geometric mean",,Cmax,1360 ng/mL
CCc1nn(CCO)c(CC)c1Oc1cc(C#N)cc(C#N)c1,,,"human, plasma total",600 mg,,Cmax,4440 nM
CCCCN1C[C@H](O)[C@@H](O)[C@H](O)[C@H]1CO,,,"human, plasma","concentration not given, total plasma concentration",,Cmax,6100 nM
O=C(O)[C@H]1O[C@@H](Oc2ccc([C@@H]3[C@@H](CC[C@H](O)c4ccc(F)cc4)C(=O)N3c3ccc(F)cc3)cc2)[C@H](O)[C@@H](O)[C@@H]1O,,,human,dose not given,,Cmax,282 ng/mL
CO[C@H]1/C=C/O[C@@]2(C)Oc3c(C)c(O)c4c(O)c(c5c(nc6cc(C)ccn65)c4c3C2=O)NC(=O)/C(C)=C\C=C\[C@H](C)[C@H](O)[C@@H](C)[C@@H](O)[C@@H](C)[C@H](OC(C)=O)[C@@H]1C,,,"human, plasma total",200 mg,,Cmax,2.5 nM

# Excerpt of the above:
SMILES,target or system,assay,test system,conditions,how to read,endpoint,result
CNCc1cc(-c2ccccc2F)n(S(=O)(=O)c2cccnc2)c1,,,"human, plasma","40 mg single dose, observed clinical data",,Cmax,57.6 ng/mL
O=C(c1cccnc1-c1ccncc1)N1CCC(O)(Cc2ccccc2)CC1,,,"human adults, mild hepatic impairment, plasma",300 mg single dose,,Cmax,1440 ng/mL
O=C(c1cc(Cc2n[nH]c(=O)c3ccccc23)ccc1F)N1CCN(C(=O)C2CC2)CC1,,,human,"oral tablet, 200 mg twice daily, multiple dose",,Cmax,7670 ng/mL
C=CC(=O)N1CCC([C@@H]2CCNc3c(C(N)=O)c(-c4ccc(Oc5ccccc5)cc4)nn32)CC1,,,"human patients, plasma","oral, 160 mg twice daily, day 8",,Cmax,344 ± 161 ng/mL
